Measurements collected from several papers.
Compare with care: the assays were run in different laboratories. Values joined by “and” are separate records of one study, mostly repeats; a detail may differ. Numbers after ± are the reported error.
Chain of UniProt O94806 (whole entry, looked up): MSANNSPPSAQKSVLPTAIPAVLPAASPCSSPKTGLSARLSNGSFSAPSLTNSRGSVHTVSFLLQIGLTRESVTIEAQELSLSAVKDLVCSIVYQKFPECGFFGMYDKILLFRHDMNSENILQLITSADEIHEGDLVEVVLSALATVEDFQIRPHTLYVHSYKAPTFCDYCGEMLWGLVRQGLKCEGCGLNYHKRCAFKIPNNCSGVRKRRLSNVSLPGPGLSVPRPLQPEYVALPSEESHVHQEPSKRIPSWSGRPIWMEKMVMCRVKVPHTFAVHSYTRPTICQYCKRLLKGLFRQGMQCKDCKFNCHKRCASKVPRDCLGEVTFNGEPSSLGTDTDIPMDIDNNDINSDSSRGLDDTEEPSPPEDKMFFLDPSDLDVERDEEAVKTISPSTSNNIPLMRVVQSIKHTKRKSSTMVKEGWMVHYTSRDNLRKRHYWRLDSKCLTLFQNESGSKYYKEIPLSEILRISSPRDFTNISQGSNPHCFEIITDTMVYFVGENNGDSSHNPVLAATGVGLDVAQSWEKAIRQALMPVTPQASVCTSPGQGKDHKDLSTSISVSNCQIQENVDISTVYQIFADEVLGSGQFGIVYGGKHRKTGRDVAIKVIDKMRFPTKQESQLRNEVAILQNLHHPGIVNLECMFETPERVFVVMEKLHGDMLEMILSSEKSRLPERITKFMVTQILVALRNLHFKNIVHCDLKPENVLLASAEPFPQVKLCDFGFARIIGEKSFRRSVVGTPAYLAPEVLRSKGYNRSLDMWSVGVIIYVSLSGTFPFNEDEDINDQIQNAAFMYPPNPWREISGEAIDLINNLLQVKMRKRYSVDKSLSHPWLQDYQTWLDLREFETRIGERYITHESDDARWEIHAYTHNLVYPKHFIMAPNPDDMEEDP
Chain of UniProt Q5XJY4 (whole entry, looked up): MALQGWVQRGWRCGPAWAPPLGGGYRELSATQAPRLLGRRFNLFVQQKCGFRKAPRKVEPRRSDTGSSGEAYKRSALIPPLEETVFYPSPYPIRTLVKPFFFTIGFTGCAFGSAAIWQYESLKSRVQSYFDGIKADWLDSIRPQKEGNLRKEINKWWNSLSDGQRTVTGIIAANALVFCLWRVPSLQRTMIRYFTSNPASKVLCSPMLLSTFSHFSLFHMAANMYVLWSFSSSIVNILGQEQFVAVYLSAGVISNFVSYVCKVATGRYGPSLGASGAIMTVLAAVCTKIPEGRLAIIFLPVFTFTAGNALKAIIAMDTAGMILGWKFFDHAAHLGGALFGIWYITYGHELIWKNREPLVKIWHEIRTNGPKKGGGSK

| SMILES | tested on | assay | test system | conditions | scale | endpoint | value |
| --- | --- | --- | --- | --- | --- | --- | --- |
| CCCCC(CC)COC(=O)CC(C(=O)OCC(CC)CCCC)S(=O)(=O)O.CCCSc1ccc2[nH]c(NC(=O)OC)nc2c1 (stereo not drawn) |  |  | buffer | 24 h, pH 1.2, room temperature, equilibrium |  | solubility | 7.3 ± 2.5 µg/mL |
| CSCC[C@H](N)C(=O)N[C@@H](C)C(=O)N[C@@H](Cc1c[nH]c2ccccc12)C(=O)N[C@@H](Cc1c[nH]cn1)C(=O)N[C@@H](CC(=O)O)C(=O)N[C@@H](CC(=O)O)C(=O)N[C@@H](CCC(=O)O)C(=O)N[C@@H](CCC(=O)O)C(=O)N[C@@H](Cc1ccccc1)C(=O)N[C@@H](C)C(=O)N[C@@H](CCCNC(=N)N)C(=O)N[C@@H](CCCNC(=N)N)C(=O)N[C@@H](CCCNC(=N)N)C(=O)N[C@@H](CCCNC(=N)N)C(=O)NCCCCCC(=O)NCCCCC(NC(=O)CCCCCNC(=O)[C@H](CCCNC(=N)N)NC(=O)[C@H](CCCNC(=N)N)NC(=O)[C@H](CCCNC(=N)N)NC(=O)[C@H](CCCNC(=N)N)NC(=O)[C@H](C)NC(=O)[C@H](Cc1ccccc1)NC(=O)[C@H](CCC(=O)O)NC(=O)[C@H](CCC(=O)O)NC(=O)[C@H](CC(=O)O)NC(=O)[C@H](CC(=O)O)NC(=O)[C@H](Cc1c[nH]cn1)NC(=O)[C@H](Cc1c[nH]c2ccccc12)NC(=O)[C@H](C)NC(=O)[C@@H](N)CCSC)C(=O)NCCCCC(NC(=O)C(CCCCNC(=O)CCCCCNC(=O)[C@H](CCCNC(=N)N)NC(=O)[C@H](CCCNC(=N)N)NC(=O)[C@H](CCCNC(=N)N)NC(=O)[C@H](CCCNC(=N)N)NC(=O)[C@H](C)NC(=O)[C@H](Cc1ccccc1)NC(=O)[C@H](CCC(=O)O)NC(=O)[C@H](CCC(=O)O)NC(=O)[C@H](CC(=O)O)NC(=O)[C@H](CC(=O)O)NC(=O)[C@H](Cc1c[nH]cn1)NC(=O)[C@H](Cc1c[nH]c2ccccc12)NC(=O)[C@H](C)NC(=O)[C@@H](N)CCSC)NC(=O)CCCCCNC(=O)[C@H](CCCNC(=N)N)NC(=O)[C@H](CCCNC(=N)N)NC(=O)[C@H](CCCNC(=N)N)NC(=O)[C@H](CCCNC(=N)N)NC(=O)[C@H](C)NC(=O)[C@H](Cc1ccccc1)NC(=O)[C@H](CCC(=O)O)NC(=O)[C@H](CCC(=O)O)NC(=O)[C@H](CC(=O)O)NC(=O)[C@H](CC(=O)O)NC(=O)[C@H](Cc1c[nH]cn1)NC(=O)[C@H](Cc1c[nH]c2ccccc12)NC(=O)[C@H](C)NC(=O)[C@@H](N)CCSC)C(N)=O (stereo partly drawn) |  |  | C57BL/6 mouse female, uterus | dose not given, 6 h | baseline: total | tissue distribution | 2.05% and 1.21% and 1.31% |
| COc1ccccc1-c1n[nH]c2nc(NC3CCN(C(=O)Cc4ccc(F)cc4F)CC3)ncc12 |  | bead binding, competition bead pull-down, refers to: LINJ.35.3750 | Leishmania donovani axenic amastigote extract | 10 µM | baseline: vehicle | relative abundance | 1.01 |
| COc1cc2c(cc1NC(=O)c1cncn1C)C[C@H]1[C@H]3CCCC[C@@]23CCN1C |  |  | Caco-2 | 10 µM, pH 6.5 |  | Papp B→A | 69.8 ×10⁻⁶ cm/s |
| CCCCCCCCCCCCCCCC(=O)N[C@@H](CCC(=O)NCCOCCOCCC(=O)NCCOCCOCCC(=O)NCCCC[C@H](NC(=O)[C@H](CC(=O)O)NC(=O)[C@H](CC(C)C)NC(=O)[C@H](Cc1ccc(O)cc1)NC(=O)[C@H](CCCCN)NC(=O)[C@H](CO)NC(=O)[C@H](Cc1ccc(O)cc1)NC(=O)[C@H](CC(=O)O)NC(=O)[C@H](CO)NC(=O)[C@@H](NC(=O)[C@H](Cc1ccccc1)NC(=O)[C@@H](NC(=O)CNC(=O)[C@H](CCC(N)=O)NC(=O)[C@@H](CO)NC(=O)[C@@H](N)Cc1c[nH]cn1)[C@@H](C)O)[C@@H](C)O)C(=O)N[C@@H](CCCNC(=N)N)C(=O)N[C@@H](CCCNC(=N)N)C(=O)N[C@@H](C)C(=O)N[C@@H](CCC(N)=O)C(=O)N[C@@H](CC(=O)O)C(=O)N[C@@H](Cc1ccccc1)C(=O)N[C@H](C(=O)N[C@@H](CCC(N)=O)C(=O)N[C@@H](Cc1c[nH]c2ccccc12)C(=O)N[C@@H](CC(C)C)C(=O)N[C@@H](CC(C)C)C(=O)N[C@@H](CC(N)=O)C(=O)N[C@H](C(=O)NCC(=O)NCC(=O)N1CCC[C@H]1C(=O)N[C@@H](CO)C(=O)N[C@@H](CO)C(=O)NCC(=O)N[C@@H](C)C(=O)N1CCC[C@H]1C(=O)N1CCC[C@H]1C(=O)N1CCC[C@H]1C(=O)N[C@@H](CO)C(N)=O)[C@@H](C)O)C(C)C)C(=O)O |  | refers to: ALP | rhesus monkey, male | subcutaneous, 60 µg/kg once daily, 28 days |  | serum enzyme activity | 300 ± 107 U/L |
| CN(C)[C@H]1C[C@@]23CC[C@@]4(O2)C(=CC[C@]2(C)[C@@H](c5ccc6ccncc6c5)CC[C@H]24)C=C3[C@@H](O)[C@@H]1O | PRKD3 (Homo sapiens, UniProt O94806) | ATP probe labelling, inhibitor, KiNativ profiling |  | 0.1 µM |  | inhibition | -5.1% |
| O=C(O)CCCOc1ccc(O)cc1-c1cc(-c2ccccc2C(F)(F)F)n(-c2ccccc2)n1 | Salmonella typhimurium | Ames test | TA98 | concentration not given, with S9 metabolic activation |  | growth-inhibiting concentration | 5000 µg/plate |
| CC(CCC(=O)NCC(=O)O)C1CCC2C3C(O)CC4CC(OC5OC(C(=O)O)C(O)C(O)C5O)CCC4(C)C3CCC12C (stereo not drawn) |  |  | human women | dose not given, SLCO1B1 *5/*14 |  | plasma concentration | 19.5 ng/mL |
| CC[C@H](C)[C@H](NC(=O)[C@H](CCCCN)NC(=O)CNC(=O)[C@H](CC(C)C)NC(=O)[C@H](Cc1ccccc1)NC(=O)[C@H](CCCCN)NC(=O)[C@H](CO)NC(=O)[C@H](Cc1ccccc1)NC(=O)[C@H](Cc1c[nH]c2ccccc12)NC(=O)[C@H](CCC(N)=O)NC(=O)[C@@H](NC(=O)[C@H](Cc1ccccc1)NC(=O)CCCCCNC(=O)CN1CCN(CC(=O)O)CCN(CC(=O)O)CCN(CC(=O)O)CC1)C(C)C)C(=O)N[C@@H](CCC(=O)O)C(=O)N1CCC[C@H]1C(=O)N[C@@H](CC(=O)O)C(=O)N[C@H](C(=O)N[C@@H](CO)C(=O)N[C@@H](CCC(N)=O)C(=O)N[C@H](C(=O)N[C@@H](CCC(N)=O)C(=O)N[C@@H](CC(=O)O)C(=O)N1CCC[C@H]1C(=O)N[C@@H](CC(N)=O)C(=O)N[C@@H](CC(=O)O)C(=O)N[C@@H](CCC(N)=O)C(=O)N[C@@H](Cc1ccc(O)cc1)C(=O)N[C@@H](CCC(=O)O)C(=O)N1CCC[C@H]1C(=O)N[C@@H](Cc1ccccc1)C(=O)O)C(C)C)C(C)C [copper-64 labelled] |  | dynamic PET | mouse both sexes, CT26 tumour, checkpoint inhibitor-treated, tumour | intravenous, 100 µCi/mouse, 30 s |  | SUVmean | 0.67 SUV |
| CN1Cc2cc(Cl)ccc2-n2c(nnc2C2CCN(c3cccc(F)n3)CC2)C1 |  |  | Sprague-Dawley rats male, striatum | intravenous, 0.03 mg/kg |  | AUC | 4.48 ng·h/mL |
| O=C([O-])CNC(=O)CN1CCN(CC(=O)NCC(=O)[O-])CCN(CC(=O)NCC(=O)[O-])CCN(CC(=O)NCC(=O)[O-])CC1.[177Lu+3] |  |  | Sprague-Dawley rat, liver | intravenous (tail vein), dose not given, 2 h |  | tissue uptake | 0.043 ± 0.02 % injected dose/g |
| CC[C@H](C)[C@H](NC(=O)[C@H](CO)NC(=O)[C@H](Cc1ccc(O)cc1)NC(=O)[C@H](Cc1ccc(O)cc1)NC(=O)[C@H](CC(N)=O)NC(=O)CNC(=O)[C@H](CO)NC(=O)[C@H](Cc1ccc(O)cc1)NC(=O)[C@H](CO)NC(=O)[C@H](CO)NC(=O)[C@H](CC(N)=O)NC(=O)COCCOCCNC(=O)CN1CCN(CC(=O)O)CCN(CC(=O)O)CCN(CC(=O)O)CC1)C(=O)N[C@@H](CC(C)C)C(N)=O [copper-64 labelled] |  | dynamic PET | tamoxifen-induced PDAC mouse model, metastases | 0 min, CLDN4-expressing tumours |  | maximum metastasis uptake | 0 %IA/cc |
| CC(C)CC(O)(CC(C)C)c1cn(C(=O)N2CCCC2)nn1 | Presenilin-associated rhomboid-like protein, mitochondrial (Parl, Mus musculus, UniProt Q5XJY4) | enzyme activity, inhibitor, competitive ABPP-SILAC, refers to: Parl | mouse T-cells | concentration not given, 4 h, treated in situ | baseline: DMSO | activity ratio | 1.29 |
| CC(C)[C@H]1NC(=O)[C@H](Cc2ccccc2)NC(=O)[C@@H](C(C)C)NC(=O)[C@@H](C)NC(=O)[C@H](CO)NC(=O)[C@@H](Cc2c(-c3ccc(-c4ccc5ccccc5c4)cc3)[nH]c3ccccc23)NC(=O)[C@@H](CO)NC1=O |  |  | female Sprague-Dawley rat, plasma | intravenous, 1 mg/kg, single dose |  | AUC(0-t) | 3350 ng·h/mL |
| COc1cc2c(cc1O)C(CCc1ccc(Cl)cc1)N([11CH3])CC2 (stereo not drawn) |  | PET | Sprague-Dawley rat, male, brain | intravenous, 1 mg/kg, carrier added |  | time to peak brain radioactivity | 1 min |
| CC(C)C[C@H](NC(=O)[C@H](Cc1ccc(O)cc1)NC(=O)[C@H](Cc1c[nH]cn1)NC(=O)[C@H](CC(N)=O)NC(=O)[C@H](CC(C)C)NC(=O)[C@H](C)NC(=O)[C@H](CC(C)C)NC(=O)CNC(=O)CNC(=O)[C@@H](NC(=O)[C@@H](NC(=O)[C@H](CCCCN)NC(=O)CNC(=O)[C@@H](NC(=O)[C@H](CCCCN)NC(=O)[C@H](CCCCN)NC(=O)[C@H](C)NC(=O)[C@H](CCCCN)NC(=O)[C@H](CCCNC(=N)N)NC(=O)[C@H](Cc1ccccc1)NC(=O)[C@H](Cc1c[nH]c2ccccc12)NC(=O)[C@H](CC(=O)O)NC(=O)[C@H](CCCCN)NC(=O)[C@H](Cc1c[nH]c2ccccc12)NC(=O)CN)C(C)C)[C@@H](C)O)C(C)C)C(N)=O |  |  | zebrafish embryos 4 hpf, E3 medium | 24 h |  | chronic toxic concentration | 5 µM |
| COc1cnc2cccc(N3CCc4c(cc(Cn5ccnc5)cc4-c4cn(C)nc4C(F)(F)F)C3=O)c2c1 |  |  | BALB/c nude mice, MV4-11 xenograft | intraperitoneal, 75 mg/kg, day 21 |  | body weight | 22.8 g and 22.4 g and 23.5 g and 21.7 g |
| O=C1NC2(CC2)COc2ncc(F)cc2[C@H]2COCCN2c2ccn3ncc1c3n2 |  |  | Sprague-Dawley rat, male, testes | oral, 2.5 mg/kg/day, 4 weeks, end of treatment |  | organ-to-brain weight ratio | 152 ± 15.6% |

Some of these lines once more:
| SMILES | tested on | assay | test system | conditions | scale | endpoint | value |
| --- | --- | --- | --- | --- | --- | --- | --- |
| CC(C)[C@H]1NC(=O)[C@H](Cc2ccccc2)NC(=O)[C@@H](C(C)C)NC(=O)[C@@H](C)NC(=O)[C@H](CO)NC(=O)[C@@H](Cc2c(-c3ccc(-c4ccc5ccccc5c4)cc3)[nH]c3ccccc23)NC(=O)[C@@H](CO)NC1=O |  |  | female Sprague-Dawley rat, plasma | intravenous, 1 mg/kg, single dose |  | AUC(0-t) | 3350 ng·h/mL |
| COc1cc2c(cc1O)C(CCc1ccc(Cl)cc1)N([11CH3])CC2 (stereo not drawn) |  | PET | Sprague-Dawley rat, male, brain | intravenous, 1 mg/kg, carrier added |  | time to peak brain radioactivity | 1 min |
| CC(C)C[C@H](NC(=O)[C@H](Cc1ccc(O)cc1)NC(=O)[C@H](Cc1c[nH]cn1)NC(=O)[C@H](CC(N)=O)NC(=O)[C@H](CC(C)C)NC(=O)[C@H](C)NC(=O)[C@H](CC(C)C)NC(=O)CNC(=O)CNC(=O)[C@@H](NC(=O)[C@@H](NC(=O)[C@H](CCCCN)NC(=O)CNC(=O)[C@@H](NC(=O)[C@H](CCCCN)NC(=O)[C@H](CCCCN)NC(=O)[C@H](C)NC(=O)[C@H](CCCCN)NC(=O)[C@H](CCCNC(=N)N)NC(=O)[C@H](Cc1ccccc1)NC(=O)[C@H](Cc1c[nH]c2ccccc12)NC(=O)[C@H](CC(=O)O)NC(=O)[C@H](CCCCN)NC(=O)[C@H](Cc1c[nH]c2ccccc12)NC(=O)CN)C(C)C)[C@@H](C)O)C(C)C)C(N)=O |  |  | zebrafish embryos 4 hpf, E3 medium | 24 h |  | chronic toxic concentration | 5 µM |
